# Measured values of several laboratories.
# Every numbered part comes from another study and shows a few of its results, in no order. Several values in a cell are separate wells, animals, samples, runs or records.
# Sequence of UniProt Q02156 (whole entry, looked up): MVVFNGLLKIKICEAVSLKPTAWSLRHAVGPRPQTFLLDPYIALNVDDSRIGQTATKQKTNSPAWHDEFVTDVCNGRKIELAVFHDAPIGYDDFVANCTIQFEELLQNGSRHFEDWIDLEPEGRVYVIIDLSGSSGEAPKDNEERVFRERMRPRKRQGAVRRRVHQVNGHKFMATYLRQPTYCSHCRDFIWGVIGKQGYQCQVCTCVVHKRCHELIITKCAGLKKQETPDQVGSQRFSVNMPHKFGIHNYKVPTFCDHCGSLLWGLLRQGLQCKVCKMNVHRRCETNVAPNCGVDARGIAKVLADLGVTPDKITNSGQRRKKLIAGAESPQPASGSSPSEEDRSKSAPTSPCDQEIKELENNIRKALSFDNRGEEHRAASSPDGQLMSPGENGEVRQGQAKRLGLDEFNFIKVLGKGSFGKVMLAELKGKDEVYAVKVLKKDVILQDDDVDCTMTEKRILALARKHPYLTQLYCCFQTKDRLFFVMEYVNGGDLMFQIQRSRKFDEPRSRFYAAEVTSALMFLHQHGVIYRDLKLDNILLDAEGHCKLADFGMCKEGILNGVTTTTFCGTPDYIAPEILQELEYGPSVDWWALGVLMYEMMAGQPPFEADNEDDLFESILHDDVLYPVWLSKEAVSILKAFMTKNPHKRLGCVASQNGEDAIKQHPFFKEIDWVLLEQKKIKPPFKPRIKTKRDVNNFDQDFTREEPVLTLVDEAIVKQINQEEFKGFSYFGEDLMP
# Sequence of UniProt Q96NX5 (whole entry, looked up): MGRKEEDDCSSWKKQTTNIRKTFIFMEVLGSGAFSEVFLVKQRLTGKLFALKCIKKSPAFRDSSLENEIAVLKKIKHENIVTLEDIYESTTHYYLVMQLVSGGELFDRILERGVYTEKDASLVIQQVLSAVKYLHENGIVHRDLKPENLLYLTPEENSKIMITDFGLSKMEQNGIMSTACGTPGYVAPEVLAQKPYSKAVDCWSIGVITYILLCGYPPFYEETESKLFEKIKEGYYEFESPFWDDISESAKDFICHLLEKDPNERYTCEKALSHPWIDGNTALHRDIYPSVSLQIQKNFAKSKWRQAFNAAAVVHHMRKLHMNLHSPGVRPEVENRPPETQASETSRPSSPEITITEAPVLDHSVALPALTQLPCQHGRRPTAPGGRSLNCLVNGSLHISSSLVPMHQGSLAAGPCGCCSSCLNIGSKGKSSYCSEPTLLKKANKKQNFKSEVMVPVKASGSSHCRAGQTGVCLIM
# Sequence of UniProt P52564 (whole entry, looked up): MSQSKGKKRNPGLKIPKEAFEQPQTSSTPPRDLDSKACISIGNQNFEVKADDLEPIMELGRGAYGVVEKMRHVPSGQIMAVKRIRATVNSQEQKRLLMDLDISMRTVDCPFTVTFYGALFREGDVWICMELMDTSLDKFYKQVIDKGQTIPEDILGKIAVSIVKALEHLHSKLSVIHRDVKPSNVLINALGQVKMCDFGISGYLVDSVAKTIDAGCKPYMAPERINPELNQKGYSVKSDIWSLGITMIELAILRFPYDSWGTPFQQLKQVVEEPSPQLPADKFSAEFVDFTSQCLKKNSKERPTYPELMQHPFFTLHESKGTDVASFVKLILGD
# Sequence of UniProt Q8NI60 (whole entry, looked up): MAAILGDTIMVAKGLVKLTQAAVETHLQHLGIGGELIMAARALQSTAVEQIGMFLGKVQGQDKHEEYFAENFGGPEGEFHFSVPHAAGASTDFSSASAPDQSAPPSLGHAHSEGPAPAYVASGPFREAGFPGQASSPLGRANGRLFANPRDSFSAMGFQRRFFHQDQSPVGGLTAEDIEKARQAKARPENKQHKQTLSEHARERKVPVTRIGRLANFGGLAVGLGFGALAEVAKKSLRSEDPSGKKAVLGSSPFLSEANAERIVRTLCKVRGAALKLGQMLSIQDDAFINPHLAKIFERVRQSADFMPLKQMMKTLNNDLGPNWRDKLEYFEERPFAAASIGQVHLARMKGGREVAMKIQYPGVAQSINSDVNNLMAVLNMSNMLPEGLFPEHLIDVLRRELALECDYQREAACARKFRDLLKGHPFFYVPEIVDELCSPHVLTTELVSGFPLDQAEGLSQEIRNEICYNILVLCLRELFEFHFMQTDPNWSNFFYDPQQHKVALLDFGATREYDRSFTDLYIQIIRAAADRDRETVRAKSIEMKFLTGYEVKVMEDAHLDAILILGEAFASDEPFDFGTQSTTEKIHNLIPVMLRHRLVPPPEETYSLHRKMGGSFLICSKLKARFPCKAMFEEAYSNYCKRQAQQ
# Sequence of UniProt Q9Y6M4 (whole entry, looked up): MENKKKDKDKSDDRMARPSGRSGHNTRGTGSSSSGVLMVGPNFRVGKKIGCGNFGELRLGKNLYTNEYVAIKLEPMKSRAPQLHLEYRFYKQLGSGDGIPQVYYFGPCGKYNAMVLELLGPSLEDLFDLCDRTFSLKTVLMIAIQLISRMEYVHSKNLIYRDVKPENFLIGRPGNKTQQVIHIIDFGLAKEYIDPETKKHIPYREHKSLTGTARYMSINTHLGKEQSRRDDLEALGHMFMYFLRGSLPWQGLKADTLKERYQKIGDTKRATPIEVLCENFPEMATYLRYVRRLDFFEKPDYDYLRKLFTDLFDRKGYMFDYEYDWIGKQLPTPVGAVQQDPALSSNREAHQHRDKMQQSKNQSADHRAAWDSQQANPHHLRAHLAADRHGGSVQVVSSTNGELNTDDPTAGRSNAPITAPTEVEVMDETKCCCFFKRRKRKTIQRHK
# Sequence of UniProt P53778 (whole entry, looked up): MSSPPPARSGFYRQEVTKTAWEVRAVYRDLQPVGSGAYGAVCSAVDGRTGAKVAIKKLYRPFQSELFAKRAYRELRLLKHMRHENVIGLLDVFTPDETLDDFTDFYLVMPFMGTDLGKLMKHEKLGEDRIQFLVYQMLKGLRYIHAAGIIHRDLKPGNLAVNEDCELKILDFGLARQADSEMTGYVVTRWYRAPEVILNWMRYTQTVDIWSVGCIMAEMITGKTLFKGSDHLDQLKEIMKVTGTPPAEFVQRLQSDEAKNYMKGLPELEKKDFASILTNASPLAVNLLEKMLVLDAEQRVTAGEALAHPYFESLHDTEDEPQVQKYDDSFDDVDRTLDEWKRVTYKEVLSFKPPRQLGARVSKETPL
# Sequence of UniProt Q9UM73 (whole entry, unmodified, looked up): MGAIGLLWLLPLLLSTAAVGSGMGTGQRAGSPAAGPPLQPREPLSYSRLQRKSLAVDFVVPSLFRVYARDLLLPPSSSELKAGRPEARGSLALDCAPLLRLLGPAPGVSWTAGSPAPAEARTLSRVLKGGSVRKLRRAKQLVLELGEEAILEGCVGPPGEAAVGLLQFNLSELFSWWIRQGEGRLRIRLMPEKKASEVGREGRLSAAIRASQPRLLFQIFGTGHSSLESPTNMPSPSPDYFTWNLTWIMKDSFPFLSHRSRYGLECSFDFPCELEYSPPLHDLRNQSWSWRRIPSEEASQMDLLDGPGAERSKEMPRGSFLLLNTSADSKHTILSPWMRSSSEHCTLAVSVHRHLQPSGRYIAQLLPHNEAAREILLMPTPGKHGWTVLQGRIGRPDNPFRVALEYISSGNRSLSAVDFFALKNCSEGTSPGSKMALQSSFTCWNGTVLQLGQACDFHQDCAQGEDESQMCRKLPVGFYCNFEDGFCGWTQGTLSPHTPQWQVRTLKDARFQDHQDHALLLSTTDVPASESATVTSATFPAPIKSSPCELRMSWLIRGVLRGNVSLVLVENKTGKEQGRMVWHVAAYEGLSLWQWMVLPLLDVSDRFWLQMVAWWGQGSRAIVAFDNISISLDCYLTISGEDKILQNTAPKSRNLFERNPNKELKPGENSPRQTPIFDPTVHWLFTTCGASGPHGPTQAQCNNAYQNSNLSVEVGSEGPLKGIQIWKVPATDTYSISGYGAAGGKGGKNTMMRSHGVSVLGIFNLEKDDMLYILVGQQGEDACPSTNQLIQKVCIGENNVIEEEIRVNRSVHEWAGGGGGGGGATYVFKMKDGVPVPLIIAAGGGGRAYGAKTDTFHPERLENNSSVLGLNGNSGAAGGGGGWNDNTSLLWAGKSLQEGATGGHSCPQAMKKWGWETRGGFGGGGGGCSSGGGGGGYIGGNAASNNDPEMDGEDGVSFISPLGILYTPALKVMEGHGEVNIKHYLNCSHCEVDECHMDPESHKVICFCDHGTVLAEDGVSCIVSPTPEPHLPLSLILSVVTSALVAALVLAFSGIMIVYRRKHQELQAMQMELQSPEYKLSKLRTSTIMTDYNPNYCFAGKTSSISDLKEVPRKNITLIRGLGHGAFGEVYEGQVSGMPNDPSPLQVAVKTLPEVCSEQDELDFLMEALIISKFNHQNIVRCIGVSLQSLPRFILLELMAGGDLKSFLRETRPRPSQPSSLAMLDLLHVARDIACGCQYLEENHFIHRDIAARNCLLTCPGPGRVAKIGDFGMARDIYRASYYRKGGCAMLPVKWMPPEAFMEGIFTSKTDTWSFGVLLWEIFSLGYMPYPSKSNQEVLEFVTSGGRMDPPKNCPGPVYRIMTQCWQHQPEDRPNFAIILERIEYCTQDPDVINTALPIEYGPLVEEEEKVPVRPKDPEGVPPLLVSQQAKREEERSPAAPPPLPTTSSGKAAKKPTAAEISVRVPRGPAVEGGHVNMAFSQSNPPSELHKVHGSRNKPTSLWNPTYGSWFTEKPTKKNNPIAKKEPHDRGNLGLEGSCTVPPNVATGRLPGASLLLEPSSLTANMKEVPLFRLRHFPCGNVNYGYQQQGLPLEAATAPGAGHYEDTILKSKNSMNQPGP
# Sequence of UniProt P68400 (whole entry, looked up): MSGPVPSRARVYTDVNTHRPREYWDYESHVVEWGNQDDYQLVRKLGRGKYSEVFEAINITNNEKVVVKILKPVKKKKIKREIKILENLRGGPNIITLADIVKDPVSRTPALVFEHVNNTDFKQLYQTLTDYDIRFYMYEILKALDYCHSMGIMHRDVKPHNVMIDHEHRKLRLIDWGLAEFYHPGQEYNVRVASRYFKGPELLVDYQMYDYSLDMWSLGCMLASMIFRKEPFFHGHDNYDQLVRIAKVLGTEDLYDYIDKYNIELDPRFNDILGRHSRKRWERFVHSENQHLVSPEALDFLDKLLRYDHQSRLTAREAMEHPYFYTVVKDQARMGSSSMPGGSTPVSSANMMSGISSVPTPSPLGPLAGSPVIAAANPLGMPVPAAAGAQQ

# Set 1
# Compound: CC(C)(O)c1cncc(-c2nc3ccc(F)cc3n2C2CC2)c1
# Tested at: 1 µM
target,read-out,method,remaining binding [%]
"Serine/threonine-protein kinase ULK2 (ULK2, Homo sapiens, UniProt Q8IYT8)",cell-free assay,competition with immobilised ligand,100
"Phosphatidylinositol 5-phosphate 4-kinase type-2 gamma (PIP4K2C, Homo sapiens, UniProt Q8TBX8)",cell-free assay,competition with immobilised ligand,100
"Atypical kinase COQ8A, mitochondrial (COQ8A, Homo sapiens, UniProt Q8NI60)",cell-free assay,competition with immobilised ligand,100
"Dual specificity tyrosine-phosphorylation-regulated kinase 1A (DYRK1A, Homo sapiens, UniProt Q13627)",binding,competition with immobilised ligand,48
"Homeodomain-interacting protein kinase 4 (HIPK4, Homo sapiens, UniProt Q8NE63)",cell-free assay,competition with immobilised ligand,100
"Serine/threonine-protein kinase RIO1 (RIOK1, Homo sapiens, UniProt Q9BRS2)",cell-free assay,competition with immobilised ligand,100
"Protein kinase C epsilon type (PRKCE, Homo sapiens, UniProt Q02156)",cell-free assay,competition with immobilised ligand,100
"Fibroblast growth factor receptor 3 (FGFR3, Homo sapiens, UniProt P22607)",cell-free assay,competition with immobilised ligand,100
"Casein kinase I isoform gamma-3 (CSNK1G3, Homo sapiens, UniProt Q9Y6M4)",cell-free assay,competition with immobilised ligand,100
"Calcium/calmodulin-dependent protein kinase type 1G (CAMK1G, Homo sapiens, UniProt Q96NX5)",cell-free assay,competition with immobilised ligand,100
"Serine/threonine-protein kinase MRCK gamma (CDC42BPG, Homo sapiens, UniProt Q6DT37)",,competition binding,100
"NUAK family SNF1-like kinase 1 (NUAK1, Homo sapiens, UniProt O60285)",cell-free assay,competition with immobilised ligand,100
"ALK tyrosine kinase receptor (ALK, Homo sapiens, UniProt Q9UM73, L1196M)",cell-free assay,competition with immobilised ligand,100
"Rhodopsin kinase GRK1 (GRK1, Homo sapiens, UniProt Q15835)",cell-free assay,competition with immobilised ligand,100
"Ribosomal protein S6 kinase alpha-6, N-terminal kinase domain (RPS6KA6, Homo sapiens, UniProt Q9UK32)",cell-free assay,competition with immobilised ligand,100
"Myosin light chain kinase (MYLK3, Homo sapiens, UniProt Q32MK0)",cell-free assay,competition with immobilised ligand,87

# Set 2
# Read-out: AlphaScreen signal
# Method: AlphaScreen counter screen
# Medium: His6 peptide without bromodomain
# Tested at: 50 µM
# Notes: assay interference check
SMILES,inhibition
COc1ccc(Nc2nccc(-c3cccc(N)c3)n2)cc1,30.3%
Cc1cc(O)c2c(c1)C(=O)c1cc(O)cc(O)c1C2=O,50.3%
CCc1c(O)[nH]c2nc3ccccc3n2c1=O,-0.6%
O=C(CCCN1CC=C(n2c(=O)[nH]c3ccccc32)CC1)c1ccc(F)cc1,33.1%
Nc1nccc(-c2ccc3noc(-c4ccc(Cl)cc4)c3c2)n1,9.05%
Cc1nc(-c2ccccn2)nc(NCCNc2cc(C(F)(F)F)ccn2)c1Cl,17.8%
COc1cccc(Nc2ncc3c(n2)CCN(C(=O)OC(C)(C)C)C3)c1,29%
CN1CCN(CCOc2cc(OC3CCOCC3)c3c(Nc4c(Cl)ccc5c4OCO5)ncnc3c2)CC1,16%

# Set 3
# SMILES: CC(=O)N[C@@H](Cc1c[nH]c2ccccc12)C(=O)N[C@@H](CCC(=O)C=[N+]=[N-])C(=O)OC(C)C
# Host: C57BL/6 CES1-/- mice, MC-38 tumour
# Dose: dose not given
# Together with: anti-PD-1
# Relative to: initial
time,body weight
day 70 after inoculation,104% and 106% and 107%
day 26 after inoculation,95.2% and 98.6% and 99.5% and 98.8% and 97.4% and 101%
day 33 after inoculation,98.5% and 99.5% and 98% and 98.7% and 97.2% and 93.2% and 93.3%
day 73 after inoculation,104% and 109%

# Set 4
# SMILES: COc1cc2c(Nc3ccc(Br)cc3F)ncnc2cc1OCC1CCN(C)CC1
# Read-out: enzyme activity
# Action: inhibitor
# Tested at: 0.5 µM
# Relative to: control
target,remaining activity [%]
"Mitogen-activated protein kinase kinase kinase 10 (MAP3K10, Homo sapiens, UniProt Q02779)",102
"Dual specificity mitogen-activated protein kinase kinase 6 (MAP2K6, Homo sapiens, UniProt P52564)",96.2
"cGMP-dependent protein kinase 1 (PRKG1, Homo sapiens, UniProt Q13976)",96.6
"Serine/threonine-protein kinase WNK2 (WNK2, Homo sapiens, UniProt Q9Y3S1)",100
"Tyrosine-protein kinase Lyn (LYN, Homo sapiens, UniProt P07948)",10.8
"Protein kinase C iota type (PRKCI, Homo sapiens, UniProt P41743)",88.1
"Mitogen-activated protein kinase 12 (MAPK12, Homo sapiens, UniProt P53778)",92.6
"Serine/threonine-protein kinase Nek4 (NEK4, Homo sapiens, UniProt P51957)",102
"RAC-gamma serine/threonine-protein kinase (AKT3, Homo sapiens, UniProt Q9Y243)",100
"Serine/threonine-protein kinase 38 (STK38, Homo sapiens, UniProt Q15208)",100
"Tyrosine-protein kinase BTK (BTK, Homo sapiens, UniProt Q06187)",17.6
"Ephrin type-A receptor 5 (EPHA5, Homo sapiens, UniProt P54756)",54.4
"Casein kinase II subunit alpha (CSNK2A1, Homo sapiens, UniProt P68400)",112
"Leucine-rich repeat serine/threonine-protein kinase 2 (LRRK2, Homo sapiens, UniProt Q5S007)",113

# Repeated from above (set 4):
target,remaining activity [%]
"Serine/threonine-protein kinase WNK2 (WNK2, Homo sapiens, UniProt Q9Y3S1)",100
"Dual specificity mitogen-activated protein kinase kinase 6 (MAP2K6, Homo sapiens, UniProt P52564)",96.2
"Tyrosine-protein kinase BTK (BTK, Homo sapiens, UniProt Q06187)",17.6
"Ephrin type-A receptor 5 (EPHA5, Homo sapiens, UniProt P54756)",54.4
"Mitogen-activated protein kinase kinase kinase 10 (MAP3K10, Homo sapiens, UniProt Q02779)",102
"cGMP-dependent protein kinase 1 (PRKG1, Homo sapiens, UniProt Q13976)",96.6
